Published values gathered from unrelated publications.
Parts stem from different laboratories: compare values within a part only.

Block 1 — technique: RNA Bind-n-Seq; molecule type: RNA; matrix: in vitro; concentration: 365 nM; reference: no-protein control; direction: higher = stronger binding
Target: RNA binding protein fox-1 homolog 2, RRM domain, GST-SBP tag (RBFOX2, Homo sapiens, UniProt O43251-10, residues 100-194)
Setting: natural RNA segment, single round, ends assumed
Shared flanks, not repeated: GGGAGUUCUACAGUCCGACGAUC … UGGAAUUCUCGGGUGCCAA
Residues (chain): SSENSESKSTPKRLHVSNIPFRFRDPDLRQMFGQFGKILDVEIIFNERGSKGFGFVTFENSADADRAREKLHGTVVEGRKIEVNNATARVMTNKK
Sequence | RBNS enrichment (R)
UAUUGUAUAUUUUUUUCUUAAUGUUUAAGGAAAUGUGCAGGAUACUACAUGCUUUUUGUAUCACACAGUAUAUGAUGGGGCAUGUGCCAUAGUGCAGGCUUGGGGAGCUU | 1.17
UGACCUAACAGGACAGAACUUUCUCCAAUUACUGGGUGAGUCAGAGCUGCACUGGUGACUCACUUCAAUGUGUCAUUUCCGGCUGCUGUAUGUGAGCAGUGGACACGUGG | 2.89
AGGGAGGACCUGUUGUGUUCCAGCCAUUCUGGUAUUCCUUUAUGUAUCUAAUUUCAUUCAAACCUCACAACAGUCUUGUGAGGCCCUUAUAUAAUUACUCCCAUUUUGCA | 1.53
AACAAUGACAAACCACACAAUUGUUGUUGAGUAAACCACGCACAAUGGCAUGUCUUUCUUUUUCUGCCAGAAAAUCUAUUUUAAGAAACCAGAAUAGUCAACAGUGUUCA | 0.443
GCACCCCCUCCCUUUCCCUUAACUCUACUUUUACAUCCCCAAACCACCUUUGUCAUCAGCUUUUCCUCUUUGCCACUGGAUCUUCAUGGAGACAUGGGCAAGCAUUAGUG | 2.07
GCAGAUUACAGAAUGUUGCCUUGUUUUCCUUGGAAAUUUUGCAAAUUGUUAUGUGAAAUUUUAGGGUAACGGUGAUUAAGCUCUGCACUGGUAUUUGGAAUUUUUUUUCC | 0.374
GCCCAGUCCCAGUACUGCCAUCUUUGCAUCCACCCCUGCAAGUCUCCAGAGGGCUUCCUGCCACAGAAGUGCUGCCAAGCAGAAGAACCUGUGCCAACUGUGGAGUGGGG | 0.466
UCCGGGUCUCCCUAGGAUAUGCCCCAGUAGCAUUUGCUGUGUAGUCUGUGUGUGAAAUUUGGGCAUUCUGCUUUUCUCUACUAAUCUUGAAGUGCUCAGUGAUUUGUGUA | 1.22
CUUGUGUGUGCGCGCAAGGCCCCUCUCUGCACAGGGGUUCUUCGGGGGAGGGGGUAUUUGCAAAACCUUAAUUUUGUUAAAAUGGGGGACUCUGUCAGGGGACUCUGUCA | 0.585
CAUGAGCACUCAAAGUGCCUUUCGAACCAUAAUGCCAUCUUGAAUUUGGGUCCUCUCGGCCCCAACUGACCAGAGGCCAACUGUGUUCACAUUUAUUUUUCUUAAAGUAC | 0.264
AGAGAAUGAGAAGUAGCUAGCUAGUUCAAAUGUAUAUGUGUGUGUAUGCAUAGAGCAUCUCCCCUGCCGGGUGUGUGAAUAACAUUGAAGCCCUCUGAGAAAGCAGGGCA | 0.605
CCUGGUUUGUUUCUGACAAAGUUACAGUCCUGGGCCUGUAAUGAAUGUCGGCGGCGCUGGGGUUGCAGGGAAAAGACAAAUCCUCAAAGCGUGGACGUGUGUCCCCAUGG | 0.347

Block 2 — technique: protein-binding microarray; molecule type: double-stranded DNA, one strand shown; matrix: in vitro; concentration: not given; direction: higher = stronger binding
Target: Hepatocyte nuclear factor 3-beta, forkhead domain (FOXA2, Homo sapiens, UniProt Q9Y261, residues 142-269)
Setting: k-mer, scored over probes, only values ≥0.25
Residues (chain): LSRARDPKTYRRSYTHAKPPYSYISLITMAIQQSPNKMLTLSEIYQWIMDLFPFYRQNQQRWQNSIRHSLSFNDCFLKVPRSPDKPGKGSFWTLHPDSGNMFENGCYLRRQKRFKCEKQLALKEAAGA
Sequence | E-score
TATTTTAA | 0.263
ATGTAAAC | 0.378
GTAATATA | 0.353
AAATCAAT | 0.27
GTTTTGTA | 0.297
ATAAATTA | 0.352
ATTGAATA | 0.343
ATGAATAA | 0.252
CAAGACAA | 0.255
ATCAATAA | 0.289
AGTATATA | 0.363
AATGTCTA | 0.314
ATAACCAA | 0.328
ACAAATCC | 0.271
ATTGATAG | 0.287
AAATACAC | 0.325
GTATTATA | 0.329
ATACAGAC | 0.359

Block 3 — technique: RNA Bind-n-Seq; molecule type: RNA; matrix: in vitro; concentration: not given; setting: RNA with constant flanks, ends assumed; reference: input RNA pool; direction: higher = stronger binding
Target: RING finger protein unkempt homolog, zinc fingers 1-6, GST-SBP tag (UNK, Homo sapiens, UniProt Q9C0B0, residues 30-357)
Shared flanks, not repeated: GGGAGUUCUACAGUCCGACGAUC … CAACAGAGGAUUGAGCAUCA
Construct (chain): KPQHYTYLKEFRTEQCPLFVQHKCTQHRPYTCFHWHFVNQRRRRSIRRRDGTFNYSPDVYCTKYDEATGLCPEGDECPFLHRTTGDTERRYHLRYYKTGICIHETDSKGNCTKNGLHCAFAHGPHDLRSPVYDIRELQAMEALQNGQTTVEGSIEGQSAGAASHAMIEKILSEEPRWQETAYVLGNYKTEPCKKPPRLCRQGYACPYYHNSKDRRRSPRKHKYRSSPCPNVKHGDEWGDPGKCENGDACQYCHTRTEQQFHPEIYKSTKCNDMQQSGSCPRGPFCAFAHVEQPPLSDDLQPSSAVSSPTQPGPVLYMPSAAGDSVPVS
Sequence | bound/input enrichment
UUUUAUUGAUCAGGUCUGUAAAUGUGUACUAAAAAAAUCAGAGUUUAUUUAUAAACAAAACCGUUUAUUUAAAGAGAAGGUCUCUUCCUUAUUGAUAUCAUGGUAUGCAUUAAUUCCAUU | 0.335 ratio
CCACUUCGUAGUGUUUUGGAACAAACCAAGUUAAAGAAAGAAGAUAUUUAUGCAGUGGAGACCGUUGGUGGUGCUACACGAAUCCCUGCGGUAAAAGAGAAGAUCAGCAAAUUUUUCGGU | 0.417 ratio
UUGGCUACACUUUUCAGUGCAUUGACUGGUUUGCCAUGGAGUCUUUAUAAUACUUUUGUGACCGAAGAAAAACAUGGCUUCAAUCAACAGACUUUGGGGUUCUUCAUGAAAGAUGCAAUC | 0.0732 ratio
AGUAAGCGGGAUUUUAUGCUGAUCACAAACAAAUCCUUGAAAGAAGAAGAUGGAGAAGAAACCGUUACCUAUGAUCGAGUAUACCAUGCUGUGUCUGUUAUGCGGCAAAGCCGAAGAUAC | 0.306 ratio
AACCGGAAGGGCCUGAUAGCCGCCAUCUGUGCAGGUCCUACUGCUCUGUUGGCUCAUGAAACCGGUUUUGGAAGUAAAGUUACAACACACCCUCUUGCUAAAGACAAAAUGAUGAAUGGA | 0.314 ratio
GCUGCCUGCACAGAGAAGAAAAUCCCUGUUGUGUUUAGACUACAAGAGGGUUAUGAUCACCGCUACUACUUCAUUGCAACUUUCAUCGCUGACCACAUCAGACACCAUGCUAAGUACCUG | 0.145 ratio
CUCCCCUACGCGCUACACAAGUGGAGCUCCUUUUCCUCCACCUACCUUCCCGAGAACAUUUCCGUGGACAAACCAAAUGACCAAUCUUCAAGAUGGUCUUCAGAGAGCAACUAUCCUCCC | 0.374 ratio
CAGGUGGGCCAAUCCAAAAUAACAGUUCUUGGCAGUCCUUCCAUGGGUAUCUAUCUUUGCCGGUAUGCAGAUCUCUUACAGGCUAAUCCUUUGGAGGCUGGGGCAGUAGGCGAUGUUGUU | 0.644 ratio
UGCUGCUACAUGAACUUCACAGGGGCCCAAAGCCAUUGUCUGCAUGUGUCUGCCCAGAAGAUGCCCGACAAUGCUGCUUUCACCCUGUAUGAGUUCUGGCAGGAUGAAGCCUCCUGGAGA | 0.0705 ratio
AAGAUGGAGGGUAGCUAGGUAGCUAUGUUGGUCCGUGCUCGACCGGCCCAAUGUUGCCUUCCGUUUUGCCAUUCAGACCAGUGGGUCGGUGUGAUGAUUUAUUCCUGGCGCCCAUAUGAG | 0.161 ratio
UUCAUUCUACUAUUCCAGAGACUGCAAAACUCCAAGACCACCAAGUUUAUCAAGAGUUUCUCCGUGUUUAUUAACUUAUAUUGCAUUAAGUAUGGGGCACUAGCAUUACAAGAAAUAUUU | 1.29 ratio

Block 4 — technique: protein-binding microarray; molecule type: double-stranded DNA, one strand shown; matrix: in vitro; concentration: 940 nM top; setting: 60-bp whole probe; together with: salmon DNA 0.4 mg/ml; reference: random background probes; direction: higher = stronger binding; shared flanks, not repeated: GCCTAGCAC … GTCTTGATTCGCTTGACGCTGCTG
Target: Interferon regulatory factor 5, full length, phosphomimetic (IRF5, Homo sapiens, UniProt Q13568-2, residues 1-514, S451D/S453D/S456D/S462D)
Sequence | fitted relative affinity [z-score]
GACGATATCGGGTCTGGAGACGTGCTA | -0.287
TTAGGTTTCGGGCCTGGGTTAGTGCTA | 7.45
TCATCTCTGCTTGTGTCACTGTGCTAG | 0.808
GACGGACTGGACACTGGGGACGTGCTA | -0.542
TAGAAACTCGTGTTTTTCTCCGTGCTA | 0.415
GACGGACAGGGTCTCGGGACGTGCTAG | -0.587
TTAGGACCGGACTTTCGGTTAGTGCTA | 2.46
GACCCTGGACACTTCACGTAGTGCTAG | -0.207
TCATTTTTCAAGAAACAGACTGTGCTA | -0.0646
TCACCTCTAGGAATGTAACTGTGCTAG | -0.11
TCACTCATGGCTTTGTAGATGTGCTAG | 0.261
GACGAACTGGGTCTCGGGACGTGCTAG | 0.124
TTAGGACTGCCTATCCTTTAGTGCTAG | -0.306
TCATTTCTGTTTTTGCTACTGTGCTAG | 1.87
GACGATCTCAGTCTCGAGTCGTGCTAG | 2.61
GATGATCTCAGTCTCGAGACGTGCTAG | 1.64
GACAGACTGCTTCTCCTGACGTGCTAG | 0.00965
GACGGTCTCGGTCTCGGGAAGTGCTAG | 4.13
CTTTCTCTCTGTGACACAGAGTGCTAG | 2.03
TCAGGTCTCGGACTGGGTTAGTGCTAG | 0.647
GACGATTGCAGTCTCGAGACGTGCTAG | 0.605
TCATTTTTTTTTTTTTTACTGTGCTAG | 1.35
TTCACTTTCCAAAGCGTGAGGTGCTAG | -0.123
TTAGATCTCAGGCTCGATTAGTGCTAG | -0.182
GACGAACTGAGTATCGAGGCGTGCTAG | 0.813

Some of these lines once more (block 4):
Sequence | fitted relative affinity [z-score]
GACGGACAGGGTCTCGGGACGTGCTAG | -0.587
TTAGGACCGGACTTTCGGTTAGTGCTA | 2.46
GACCCTGGACACTTCACGTAGTGCTAG | -0.207
TCATTTTTCAAGAAACAGACTGTGCTA | -0.0646
TCACCTCTAGGAATGTAACTGTGCTAG | -0.11
